Measurements pooled from the literature.
Each line is one published result; not all experiments were run side by side. Numbers after ± are the reported error.

| Structure (SMILES) | assay | system | conditions | AUC(0-last) |
| --- | --- | --- | --- | --- |
| CCCC[C@H](NC(C)=O)C(=O)N[C@H]1CC(=O)NCCCC[C@@H](C(=O)O)NC(=O)[C@H](Cc2c[nH]c3ccccc23)NC(=O)[C@H](CCCN=C(N)N)NC(=O)[C@@H](Cc2ccccc2)NC(=O)[C@H](Cc2cnc[nH]2)NC1=O | LC-MS/MS, non-compartmental | human, plasma | subcutaneous, 2.5 mg twice daily | 0.475 ± 0.0752 µg·h/mL |
| CN(CCOc1ccc(CC2SC(=O)NC2=O)cc1)c1ccccn1 (stereo not shown) | – | human, both sexes, plasma | oral, 4 mg alone, day 1, geometric mean | 1450 µg·h/mL |
| CCOCCn1c(C2CCN(CCc3ccc(C(C)(C)C(=O)O)cc3)CC2)nc2ccccc21 | – | human, moderate renal insufficiency, plasma | oral, 20 mg | 1.36 µg·h/mL |
| COc1c(N2C[C@@H]3CCCN[C@@H]3C2)c(F)cc2c(=O)c(C(=O)O)cn(C3CC3)c12 | – | human | 400 mg single dose, median, alone | 22.6 µg·h/mL |
| CS(=O)(=O)n1cc2c(n1)CN([C@H]1CO[C@H](c3cc(F)ccc3F)[C@@H](N)C1)C2 | – | healthy male human, plasma | oral, 200 mg, fasted single dose | 158 µM·h |
| CC#CC(=O)NCCCC(=O)c1nc(-c2ccc(C(=O)Nc3ccccn3)cc2)c2c(N)nccn12 | – | human, healthy control, plasma | oral, 50 mg acalabrutinib, single, geometric mean | 0.7 µg·h/mL |
| CN1CCc2nc(C(=O)N[C@@H]3C[C@@H](C(=O)N(C)C)CC[C@@H]3NC(=O)C(=O)Nc3ccc(Cl)cn3)sc2C1 | – | human, plasma | 60 mg, fed, added: dronedarone | 1.66 µg·h/mL |
| C[C@@H](c1nc(-c2ccc(C#N)cc2)cs1)[C@](O)(Cn1cncn1)c1cc(F)ccc1F | – | human, both sexes, plasma | oral, 200 mg single dose, added: ketoconazole 200 mg BID | 238 µg·h/mL |
| CC(C)(C)OC[C@@H]1C(=O)NCCN1C(=O)C[C@H](N)Cc1cc(F)c(F)cc1F | – | human, male, plasma | oral, single dose, fixed-dose combination with metformin, fasted | 0.164 ± 0.0287 µg·h/mL |
| CO[C@H]1C[C@@H]2CC[C@@H](C)[C@@](O)(O2)C(=O)C(=O)N2CCCC[C@H]2C(=O)O[C@H]([C@H](C)C[C@@H]2CC[C@@H](O)[C@H](OC)C2)CC(=O)[C@H](C)/C=C(\C)[C@@H](O)[C@@H](OC)C(=O)[C@H](C)C[C@H](C)/C=C/C=C/C=C/1C | – | healthy humans, whole blood | oral, 2 mg single dose, added: isavuconazole 200 mg once daily after loading | 0.303 µg·h/mL |

A few entries again:
| Structure (SMILES) | assay | system | conditions | AUC(0-last) |
| --- | --- | --- | --- | --- |
| CCOCCn1c(C2CCN(CCc3ccc(C(C)(C)C(=O)O)cc3)CC2)nc2ccccc21 | – | human, moderate renal insufficiency, plasma | oral, 20 mg | 1.36 µg·h/mL |
